Measured values gathered from unrelated publications.
Numbered parts are unrelated; each lists some results of a single study.

Set 1
Target: Prothrombin, mature alpha-thrombin (F2, Homo sapiens, UniProt P00734)
Technique: aptamer microarray, sandwich
Molecule type: DNA with 2'F-ANA
Sample: in vitro
Concentration: 200 nM
Notes: whole 15-mer aptamer, many near background
With: Cy3 exosite-II aptamer, 400 nM
Direction: higher = stronger binding
Strand: GGTTGGTGTGGTTGG
Modification	mean fluorescence intensity
2'F-ANA at 1 2 5 6 7 9 11 14	51.6 a.u.
2'F-ANA at 1 2 4 8 10 13 14	80 a.u.
2'F-ANA at 1 4 5 7 8 9 13 14 15	48.5 a.u.
2'F-ANA at 1 2 4 5 7 8 9 12 13 15	119 a.u.
2'F-ANA at 3 7 8 10 11 13	615 a.u.
2'F-ANA at 1 2 8 11 15	181 a.u.
2'F-ANA at 1 2 3 4 5 6 8 10 15	239 a.u.
2'F-ANA at 1 2 3 4 6 7 8 10 14	47.5 a.u.
2'F-ANA at 1 2 3 4 6 8 11 12 14 15	120 a.u.
2'F-ANA at 1 5 6 7 8 10 11	49.9 a.u.
2'F-ANA at 2 5 7 10 13 14 15	43.9 a.u.
2'F-ANA at 1 2 3 4 5 8 9 10 14	48 a.u.
2'F-ANA at 1 3 4 5 6 8 9 11 12 13 14 15	48.9 a.u.
2'F-ANA at 1 2 4 6 9 10 11 13 14 15	54 a.u.
2'F-ANA at 2 5 7 8 10 11 12	47.8 a.u.
2'F-ANA at 1 4 5 6 7 8 9 11 12 14 15	52 a.u.

Set 2
Target: Interferon regulatory factor 5, full length, phosphomimetic (IRF5, Homo sapiens, UniProt Q13568-2, residues 1-514, S451D/S453D/S456D/S462D)
Technique: protein-binding microarray
Molecule type: double-stranded DNA, one strand shown
Sample: in vitro
Concentration: 940 nM top
Notes: 60-bp whole probe
With: salmon DNA 0.4 mg/ml
Relative to: random background probes
Direction: higher = stronger binding
Constant ends, left off below: GCCTAGCAC … GTCTTGATTCGCTTGACGCTGCTG
Strand	fitted relative affinity
GACGAACTGAGGTTCGAGACGTGCTAG	-0.717 z-score
ATAGGTTTCGGGACTGGGTTAGTGCTA	6.99 z-score
GACGATTTCGGGGATCGAGACGTGCTA	0.761 z-score
TTTGAACTGAGTTTCGATTAGTGCTAG	7.85 z-score
TGGTAATTCTTTGCTCATTTTGTGCTA	0.84 z-score
ATCTTCATGAAATTTTAGTAAGTGCTA	-0.145 z-score
TTAGGTTTCCTTTTCCTTTTGTGCTAG	2.25 z-score
GACGGTCTCCTTTTCCTGACGTGCTAG	0.683 z-score
GACGATTTCGGGTATCTAGACGTGCTA	0.745 z-score
TCACTTTGCCTTTTGCTACTGTGCTAG	0.924 z-score
GACGGTCTCGGTATGGGGACGTGCTAG	3.94 z-score
TTAGATATCTGACTGGATTAGTGCTAG	-0.165 z-score
GACGGTCTCCTGCTCCTGACGTGCTAG	-0.144 z-score
TTAGAACTGGGGTTTCGATTCGTGCTA	4.75 z-score
GACGGTTTCCGGTATCGGGACGTGCTA	2.77 z-score
TCAAATTAGTGTTTTGCACTGTGCTAG	-0.283 z-score
GTCGATTTCGGGACTGGAGACGTGCTA	0.578 z-score
TTAGGTTTCGGGACCGGGTTAGTGCTA	9.28 z-score
GGGATTTTTAGTTAGAAAAAGTGCTAG	-0.316 z-score

Set 3
Target: RNA binding protein fox-1 homolog 2, RRM domain, GST-SBP tag (RBFOX2, Homo sapiens, UniProt O43251-10, residues 100-194)
Technique: RNA Bind-n-Seq
Molecule type: RNA
Sample: in vitro
Concentration: 365 nM
Notes: natural RNA segment, single round, ends assumed
Relative to: no-protein control
Direction: higher = stronger binding
Constant ends, left off below: GGGAGUUCUACAGUCCGACGAUC … UGGAAUUCUCGGGUGCCAA
Construct (chain): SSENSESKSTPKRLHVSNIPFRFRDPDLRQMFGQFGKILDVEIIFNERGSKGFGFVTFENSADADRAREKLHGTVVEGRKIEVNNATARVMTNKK
Strand	RBNS enrichment (R)
UGGUAACGUGUCUGGAGUGUGGCACUGGCAGAAUGGGGAAAGAACAGGAAUAUUGGCCAUGAUUCUUUUGCCCUGGGCUUCUUGGGCAUCCGCUACAGCCAUACCAGACA	0.623
AUUUAGGUGCUUUCUCUGGCAUCUAUAAAAGUAAAUUCUAGUGCCUGCCAAGUGAUGGAUUAUAAUGGUCUCUAGCAAAUGUGUGGUAAACAUUCAUAUGGCCAUUAAUU	0.465
CACAGAAGCACAAUUUUGCCCUUUGCGAGACAUUGUUGCCUCUAUCUAGUCCUACAAGUAGGGUUUUGCAUACUGUGUUUGCCCCUAGGGUUGUCAGUGCAUCAGAAAUA	1.15
UUGUUCCUGUGGCCAGGAGUUUGGUGACUGAAUCAUUUAUGGGCUCCUUUAAUGGGCCCAUAAAAGCUCUUAGCUUCCUCAGGGGGUCAGCAGAGUUGUUGAAUCUUAAU	0.29
CACUUGGCGACCCUUCUGGUCUUGCUGGAGGGGUUUCCUGGGUAUAACCCAUUGGGCUGCCCAAGGCCAGCCAGCCUGAGCUCUCCUGCAAGACAGAGCCUGAUGUGGCA	0.64
UGGUGACCACCUAUGCUUCAGUGCAUUUUCUAAACAAUUUCUCAAACUGAUCUGCUCCCGGGUGCUUUCUUACCACCAUCUCUGGUGACUUAGCCUCAAAUUGGUGUUUU	0.411
UUAAAGGGAAUGACUUUGAAGUAAAACCUUUUUUCUUGCUACUGAAAAAAAUGGAGUUGUUUUGGGUGGUAAAGUGUUAAGGAAUAGGGACAGCUGGUCACACAAGGAAC	1.61
CGUCUUUUCAUUCCAGUCCAGUUCAGGCUGCCGUGCACUUUGUCGGAUAUAAAAUAAACCACGGGCCCGCCAUGGCGUUAGCCCUUCCUUUUGCAGUUGCGUCUGGGAAG	0.239

Set 4
Target: Centromere-binding protein 1, full length, N-terminal tag (CBF1, Saccharomyces cerevisiae, UniProt P17106, residues 1-351)
Sequence of UniProt P17106 (whole entry, looked up): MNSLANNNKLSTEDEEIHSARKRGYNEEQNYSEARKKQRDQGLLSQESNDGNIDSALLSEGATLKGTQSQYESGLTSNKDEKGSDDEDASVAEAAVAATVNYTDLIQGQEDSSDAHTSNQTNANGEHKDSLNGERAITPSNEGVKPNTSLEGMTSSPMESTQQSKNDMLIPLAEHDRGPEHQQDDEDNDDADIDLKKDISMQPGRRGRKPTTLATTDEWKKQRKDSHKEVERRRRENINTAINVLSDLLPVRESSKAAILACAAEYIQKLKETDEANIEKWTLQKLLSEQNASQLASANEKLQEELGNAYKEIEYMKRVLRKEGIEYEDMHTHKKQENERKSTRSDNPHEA
Technique: protein-binding microarray
Molecule type: double-stranded DNA, one strand shown
Sample: in vitro
Concentration: 0.8 µM
Notes: whole 60-bp probe, no competitor
Direction: higher = stronger binding
Constant ends, left off below: … GTCTTGATTCGCTTGACGCTGCTG
Strand	fluorescence intensity [a.u.]
GAAATTAGTAAGATCAACATCAGGGAGGGAACTTAG	507
GAACGATCTGTTGGTGGTGTTCTAAAGTGAAGGTAG	554
GAAAATTTGTTGTTACACGAGGAGTATTAAAAATAG	617
CTAACTCTGCATCAGCACGCGGGCTCTGGAAGGTTC	538
CTAACCACACACTTTAACATCAGAAGAAAACTTTTC	531
GAATCTGTCATCTAGCACGTTTCCCAAATGCTTTAG	709
CTATAAAAAACAAAAAACACCACGTCCGGGTAATTC	533
CTACAGTCAATTCGTCAGCTGGCCGATGAAAGGTTC	626
CTAATAAATCATAATCACGTAAAGCCACCGAAATTC	581
GAAGCGCAAGAAAGTGACGTGGCCAACTATCAGTAG	536
CTATGAGATTCCCGACATCAGTAAGACATAGTATTC	507
CCTAACTACTATATTGACGTGTAATAGCTTCGTACA	529
GAAGGAATCACGCGGCACGTCTTCTGGGGACTTTAG	1380
CTACTGTTGTATTTCCGCGTGAATCCACTTTTATTC	558
GAAATATAGGGCGGTGATGATACCCATCGAGCTTAG	503
CTAACTAAAACTATGTGCGTGATAAATGGTTCTTTC	616
GAACTTCCTGGACCTCATGTGATACTATACCAGTAG	1010
GAAGCAGAGTTGCCCCCCGTGGTACTGGAGAGATAG	535
GAAGAGGGATCACATCACGATACTATTGTTTCTTAG	799

A few entries again (set 4):
Strand	fluorescence intensity [a.u.]
CTACAGTCAATTCGTCAGCTGGCCGATGAAAGGTTC	626
CTAATAAATCATAATCACGTAAAGCCACCGAAATTC	581
GAAGCGCAAGAAAGTGACGTGGCCAACTATCAGTAG	536
CTATGAGATTCCCGACATCAGTAAGACATAGTATTC	507
CCTAACTACTATATTGACGTGTAATAGCTTCGTACA	529
GAAGGAATCACGCGGCACGTCTTCTGGGGACTTTAG	1380
CTACTGTTGTATTTCCGCGTGAATCCACTTTTATTC	558
